Measured values collected from several papers.
Each numbered part is a random draw from the data of one study; scales do not carry over between parts.

Block 1
Target: Histone acetyltransferase KAT6A, winged helix 1, GST fusion (KAT6A, Homo sapiens, UniProt Q92794, residues 1-85)
Method: protein binding microarray
Molecule type: double-stranded DNA, one strand shown
Sample: in vitro
Tested at: not given
Setting: 8-mer, flanks averaged, mean of 2 arrays, mostly near background
Reference: not given
Reading: higher = stronger binding
Construct (chain): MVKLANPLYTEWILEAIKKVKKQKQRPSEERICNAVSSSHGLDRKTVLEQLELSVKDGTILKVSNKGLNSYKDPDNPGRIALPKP
Strand	E-score
TCGATCCA	-0.0401
CTGCTTAC	-0.164
CGGAAACC	0.178
CCTCGCAC	0.127
GCTGCTAC	0.0645
ACGCAGTA	-0.0151
CCAACCCC	-0.218

Block 2
Target: Sal-like protein 4, full length isoform A (SALL4, Homo sapiens, UniProt Q9UJQ4, residues 1-1053)
Sequence of UniProt Q9UJQ4 (whole entry, looked up): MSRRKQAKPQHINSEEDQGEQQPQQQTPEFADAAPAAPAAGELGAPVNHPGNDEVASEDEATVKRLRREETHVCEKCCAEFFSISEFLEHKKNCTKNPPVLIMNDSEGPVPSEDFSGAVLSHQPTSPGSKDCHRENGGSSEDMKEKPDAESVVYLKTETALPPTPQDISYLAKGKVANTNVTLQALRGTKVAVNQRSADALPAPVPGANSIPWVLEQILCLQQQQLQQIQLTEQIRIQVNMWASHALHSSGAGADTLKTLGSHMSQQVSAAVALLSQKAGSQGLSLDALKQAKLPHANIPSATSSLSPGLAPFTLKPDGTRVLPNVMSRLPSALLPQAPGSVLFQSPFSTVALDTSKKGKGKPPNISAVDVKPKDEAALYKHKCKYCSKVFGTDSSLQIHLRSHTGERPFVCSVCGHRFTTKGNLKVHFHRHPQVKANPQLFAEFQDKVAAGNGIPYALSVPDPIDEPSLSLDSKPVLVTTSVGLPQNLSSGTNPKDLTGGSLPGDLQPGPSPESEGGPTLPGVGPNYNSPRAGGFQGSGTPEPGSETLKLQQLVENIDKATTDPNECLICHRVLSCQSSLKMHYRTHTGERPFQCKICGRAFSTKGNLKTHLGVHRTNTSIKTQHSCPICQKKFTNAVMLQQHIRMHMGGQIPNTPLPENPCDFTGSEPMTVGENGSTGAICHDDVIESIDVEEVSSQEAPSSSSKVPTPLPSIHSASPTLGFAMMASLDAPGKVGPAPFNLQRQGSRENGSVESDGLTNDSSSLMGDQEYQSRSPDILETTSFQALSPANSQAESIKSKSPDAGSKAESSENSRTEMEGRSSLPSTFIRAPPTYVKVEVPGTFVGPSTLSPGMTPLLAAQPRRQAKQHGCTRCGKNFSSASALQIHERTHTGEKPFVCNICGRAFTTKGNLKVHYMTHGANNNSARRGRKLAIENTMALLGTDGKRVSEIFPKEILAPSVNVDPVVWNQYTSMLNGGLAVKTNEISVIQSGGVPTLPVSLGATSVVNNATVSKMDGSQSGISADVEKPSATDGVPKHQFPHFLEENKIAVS
Method: universal PBM
Molecule type: double-stranded DNA, one strand shown
Sample: in vitro
Tested at: 600 nM
Setting: 8-mer, flanks averaged, mean of replicates
Reading: higher = stronger binding
Strand	E-score
CACAAAGG	-0.029
CGTCCTCA	-0.0878
CCCACTCG	-0.304
AATAAGGG	0.152
CGAGTGGA	-0.0422
ACGGTCCA	-0.245
GCGCTGAA	-0.309

Block 3
Target: RNA binding protein fox-1 homolog 2, RRM domain, GST-SBP tag (RBFOX2, Homo sapiens, UniProt O43251-10, residues 100-194)
Method: RNA Bind-n-Seq
Molecule type: RNA
Sample: in vitro
Tested at: 365 nM
Setting: natural RNA segment, single round, ends assumed
Reference: no-protein control
Reading: higher = stronger binding
Constant ends, left off below: GGGAGUUCUACAGUCCGACGAUC … UGGAAUUCUCGGGUGCCAA
Target sequence (chain): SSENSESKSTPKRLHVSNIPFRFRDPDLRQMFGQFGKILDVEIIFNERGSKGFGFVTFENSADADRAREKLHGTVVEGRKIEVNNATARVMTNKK
Strand	RBNS enrichment (R)
GAUUAGCUGCCAUGUUUUAUUCUUAUAAGGAAAAGCACAGAGAUCAUUAAAGUAAGUUUUACAAUAAGGAAUGGUUCUGUUUUUUCCUGGCUGAGCUUUGCUGGUGGUCG	0.328
GAAUAUCAAGUAUAAUGAUGUAGUAAAAAGAUUUCUCCAGAAAACACUUUGAGAUACUUAAAGAAAUUCAGAGCAUAUCGAAUGUUAUGAAUGAAGAGUAAAAUAAUUAC	0.635
UUACAUUUCCUUGAUAGCUAAUGAUGAGCAUUUUUCAUGUGCUUAUGGGCCGUUUAUAUACCUUUGGUGAAAUGUCUAUUUAAAUCUUUUGCUCACUUUUCAGUUGGGUU	0.698
GUGGGCUUGUUAUUGGGAUGAAGACUGCUGGAAGGGACUCCUUGCUGUUUAUCUACUGCUUUGAGCCCUCCUAAGUUAACCUGUGCCUCAUUUGUAAAACCACCAGCAUC	0.494
UUCCCAGAGUUCUGGCAGGCAUCCGCACCAUGGGGAAGCUUCAUCUACCAAUGAUUGUUUAGCUAGCAAGAAUGGUAAGACUGAGGCACCAGUGAGUGAGCAAACCACUU	0.334

Further values, each from its own experiment
Molecule	target	assay	system	conditions	how to read	measurement	result
PhoQ, residues 284 288 289 292 302 303 SLSLLA	PhoP, residues 12 14 15 18 19 LFHKL (Escherichia coli, UniProt P23836)	Sort-seq, item: YFP reporter	E. coli	PhoQ-PhoP variant library, with: 10 µM Mg2+	reference: high Mg2+ state, higher = stronger signaling	fold induction	1.13

For quick reference, copied from above (block 1):
Strand	E-score
TCGATCCA	-0.0401
